Experimental data from different studies.
Protocols differ between the studies behind these lines. ± gives the spread as reported.
CNR1 F170A: Cannabinoid receptor 1 (CNR1, Homo sapiens, UniProt P21554, F170A)
4'-phosphopantetheinyl transferase PptT: 4'-phosphopantetheinyl transferase PptT (Mycobacterium tuberculosis, UniProt O33336)
F2: Prothrombin (F2, Homo sapiens, UniProt P00734)

SMILES | target or system | test | system | setting | measurement | result
CCCCCn1cc(C(=O)c2cccc3ccccc23)c2ccccc21 | CNR1 F170A | cAMP, agonist, BRET | – | – | EC50 | 398 nM
COc1ccccc1C(C[N+](=O)[O-])c1c(-c2ccccc2)[nH]c2ccccc12 (stereo not drawn) | Cannabinoid receptor 1, with Gz (CNR1, Homo sapiens, UniProt P21554) | Gz dissociation, agonist, BRET | HEK293 | – | EC50 | 480 ± 70 nM
C(=C\c1ccc(-c2ccccc2)cc1)/Cn1ccnc1 | cyp121 (Mycobacterium tuberculosis, UniProt P9WPP7) | substrate depletion, inhibitor, LC-MS/MS | – | with: cYY 20 µM | IC50 | 21000 nM
CN(C)CC1CN(S(=O)(F)=Nc2cc(Cl)c(C(=O)N3CCO[C@@H](c4ccccc4)C3)c(Cl)c2)C1 (stereo partly drawn) | hemagglutinin (Influenza A virus, UniProt B4UPF7) | binding | A/Beijing/262/1995 | – | Kd | 30 nM
Cc1ccc2c(C(C[N+](=O)[O-])c3cccs3)c(-c3ccccc3)[nH]c2c1 (stereo not drawn) | CNR1 (Homo sapiens, UniProt P21554, Y172A) | G protein activation, agonist, BRET | – | – | EC50 | 180 nM
Cc1nc2ccc(CNc3ccc(C(=O)NC(CCC(=O)O)C(=O)O)cc3F)cc2c(=O)[nH]1 (stereo not drawn) | 4'-phosphopantetheinyl transferase PptT | enzyme activity, inhibitor, FP | – | – | IC50 | 36 nM
CC[C@H](C)[C@H](NC(=O)[C@@H]1CCCN1C(=O)[C@H](CCC(=O)O)NC(=O)[C@H](CCSC)NC(=O)CNC(=O)[C@H](CC(N)=O)NC(=O)CNC(=O)CNC(=O)[C@H](CCC(=O)O)NC(=O)CNC(=O)[C@H](CCCNC(=N)N)NC(=O)[C@H](CCC(N)=O)NC(=O)[C@H](Cc1ccc(O)cc1)NC(=O)[C@H](CC(C)C)NC(=O)[C@H](CCCCN)NC(=O)[C@@H]1CCCN1C(=O)[C@H](CCC(N)=O)NC(=O)[C@H](C)NC(=O)[C@@H](NC(=O)[C@H](CCC(=O)O)NC(=O)[C@H](C)NC(=O)[C@H](CCC(=O)O)NC(=O)[C@@H](NC(=O)[C@@H]1CCCN1C(=O)[C@@H](N)CCCCN)C(C)C)C(C)C)C(=O)N1CCC[C@H]1C(=O)N[C@@H](CCC(=O)O)C(=O)N[C@@H](CC(=O)O)C(=O)N[C@@H](Cc1ccc(OS(=O)(=O)O)cc1)C(=O)N[C@@H](CC(C)C)C(=O)N[C@@H](CC(N)=O)C(=O)N[C@@H](CCC(=O)O)C(=O)N[C@@H](C)C(=O)N[C@@H](CC(C)C)C(=O)N[C@@H](CC(N)=O)C(=O)N[C@@H](C)C(=O)O | F2 | enzyme activity, inhibitor, absorbance | – | pH 8 | Ki | 0.01 nM
CCOC(=O)CC[C@H](NC(=O)c1ccc(N(C)Cc2ccc3[nH]c(=O)ccc3c2)cc1)C(=O)OCC | 4'-phosphopantetheinyl transferase PptT | enzyme activity, inhibitor, fluorescence polarization | – | enzyme 100 nM | IC50 | > 25000 nM
CC[C@H](C)[C@H](NC(=O)[C@@H]1CCCN1C(=O)[C@H](CCC(=O)O)NC(=O)[C@H](CCSC)NC(=O)CNC(=O)[C@H](CC(N)=O)NC(=O)CNC(=O)CNC(=O)[C@H](CCC(=O)O)NC(=O)CNC(=O)[C@H](CCCNC(=N)N)NC(=O)[C@H](CCC(N)=O)NC(=O)[C@H](Cc1ccc(O)cc1)NC(=O)[C@H](CC(C)C)NC(=O)[C@H](CCCCN)NC(=O)[C@@H]1CCCN1C(=O)[C@H](CCC(N)=O)NC(=O)[C@H](C)NC(=O)[C@@H](NC(=O)[C@H](CCC(=O)O)NC(=O)[C@H](C)NC(=O)[C@H](CCC(=O)O)NC(=O)[C@@H](NC(=O)[C@@H]1CCCN1C(=O)[C@@H](N)CCCCN)C(C)C)C(C)C)C(=O)N1CCC[C@H]1C(=O)N[C@@H](CCC(=O)O)C(=O)N[C@@H](CC(=O)O)C(=O)N[C@@H](Cc1ccc(O)cc1)C(=O)N[C@@H](CC(C)C)C(=O)N[C@@H](CC(N)=O)C(=O)N[C@@H](CCC(=O)O)C(=O)N[C@@H](C)C(=O)N[C@@H](CC(C)C)C(=O)N[C@@H](CC(N)=O)C(=O)N[C@@H](C)C(=O)O | Prothrombin, gamma-thrombin (F2, Homo sapiens, UniProt P00734) | – | – | pH 8 | Ki | 56600 ± 1550 nM
O=[N+]([O-])CC(c1ccco1)c1c(-c2ccccc2)[nH]c2ccccc12 (stereo not drawn) | CNR1 (Homo sapiens, UniProt P21554, I245L) | G protein activation, agonist, BRET | – | – | EC50 | 490 nM
CCCCCn1cc(C(=O)c2cccc3c2CC(C)(C)C3)c2ccccc21 | CNR1 F170A | G protein activation, agonist, BRET | – | – | EC50 | 7590 nM
C#CCN(Cc1cc(Cl)c2nc(C)[nH]c(=O)c2c1)c1ccc(C(=O)N[C@H](CCC(=O)O)C(=O)O)cc1 | 4'-phosphopantetheinyl transferase PptT | enzyme activity, inhibitor, FP | – | – | IC50 | 48 nM
CC(C)(C)C(=O)OCOP(=O)(OCOC(=O)C(C)(C)C)C1CCCN(O)C1=O (stereo not drawn) | CAKI-1 | – | – | – | GI50 | 324 nM
CC(C)CC(C(=O)N1CC2(CC1C#N)C(=O)Nc1ccccc12)N(C)C(=O)c1cc2c(F)cc(F)c(F)c2[nH]1 (stereo not drawn) | Cathepsin S (CTSS, Homo sapiens, UniProt P25774) | enzyme activity, inhibitor | – | – | IC50 | > 100000 nM
CCCCCCC1CCCC(=O)O1 (stereo not drawn) | Carbonic anhydrase (Vibrio cholerae serotype O1, UniProt Q9KMP6) | enzyme activity, inhibitor, stopped-flow | – | – | Ki | 38800 nM
C#CCN(Cc1ccc2nc(C)[nH]c(=O)c2c1)c1ccc(C(=O)NC(CCC(=O)O)C(=O)O)c(N)c1 (stereo not drawn) | 4'-phosphopantetheinyl transferase PptT | enzyme activity, inhibitor, FP | – | – | IC50 | 47 nM
CCN(CC)C(=O)c1ccc(C(c2cccc(O)c2)N2CC(C)N(Cc3ccccc3)CC2C)cc1 (stereo not drawn) | OPRD1 (Homo sapiens, UniProt P41143, M132A) | – | – | – | Ki | 1.47 ± 0.08 nM
O=C1NC2(CC2)COc2ncc(F)cc2[C@H]2COCCN2c2ccn3ncc1c3n2 | – | – | Sprague-Dawley rat, male, brain | oral, 5 mg/kg/day, 4 weeks dosing, end of recovery | organ-to-body weight ratio | 0.428 ± 0.028%
CCN(Cc1ccc2nc(C)[nH]c(=O)c2c1)c1ccc(C(=O)NC(C(=O)O)C(C)C)cc1 (stereo not drawn) | 4'-phosphopantetheinyl transferase PptT | enzyme activity, inhibitor, fluorescence polarization | – | enzyme 100 nM | IC50 | 2900 nM
CC(C)C[C@H](NC(=O)[C@H](CC(=O)O)NC(=O)[C@H](CCC(N)=O)NC(=O)[C@H](CC(N)=O)NC(=O)[C@H](CC(C)C)NC(=O)[C@@H](N)CCC(=O)O)C(=O)N[C@H]1CSSC[C@@H](C(=O)N[C@@H](CCCCN)C(=O)NCC(=O)N[C@@H](CO)C(=O)N[C@@H](CCCCNC(=O)CCCC[C@@H]2SC[C@@H]3NC(=O)N[C@@H]32)C(N)=O)NC(=O)[C@H](Cc2ccccc2)NC(=O)[C@H](Cc2ccc(O)cc2)NC(=O)[C@H](CC(=O)O)NC(=O)[C@H](C)NC(=O)[C@H](Cc2ccc(O)cc2)NC(=O)[C@H](CC(=O)O)NC1=O | anti-HA antibody 12CA5 (mouse) | biolayer interferometry | – | 30 °C | Kd | < 1 nM
COc1ccc2nccc(CC[C@H]3OC[C@H](NC(=O)c4ccc5c(c4)NC(=O)CO5)CO3)c2c1 | DNA gyrase subunit A, with GyrB (Mycobacterium tuberculosis, UniProt P9WG47) | single-stranded DNA cleavage | – | 10 min, 37 °C, with: gyrase 100 nM | EC50 | 1430 nM
CCN(Cc1ccc2nc(C)[nH]c(=O)c2c1)c1ccc(C(=O)NC(CCC(=O)O)C(=O)O)s1 (stereo not drawn) | 4'-phosphopantetheinyl transferase PptT | enzyme activity, inhibitor, FP | – | – | IC50 | 53 nM
CCN(CC)C(=O)[C@@H]1C=C2c3cccc4c3c(cn4C(=O)c3ccco3)C[C@H]2N(C)C1 | ADRA1B (Homo sapiens, UniProt P35368) | ligand displacement, radioligand | – | – | Ki | > 10000 nM
C#CCN(Cc1ccc2nc(C)[nH]c(=O)c2c1)c1ccc(C(=O)N[C@@H](CCC(=O)O)C(=O)O)cc1 | 4'-phosphopantetheinyl transferase PptT | enzyme activity, inhibitor, fluorescence polarization | – | enzyme 100 nM | IC50 | 65 nM
CC[C@H](C)[C@H](NC(=O)[C@@H]1CCCN1C(=O)[C@H](CCC(=O)O)NC(=O)[C@H](CCSC)NC(=O)CNC(=O)[C@H](CC(N)=O)NC(=O)CNC(=O)CNC(=O)[C@H](CCC(=O)O)NC(=O)CNC(=O)[C@H](CCCNC(=N)N)NC(=O)[C@H](CCC(N)=O)NC(=O)[C@H](Cc1ccc(O)cc1)NC(=O)[C@H](CC(C)C)NC(=O)[C@H](CCCCN)NC(=O)[C@@H]1CCCN1C(=O)[C@H](CCC(N)=O)NC(=O)[C@H](C)NC(=O)[C@@H](NC(=O)[C@H](CCC(=O)O)NC(=O)[C@H](C)NC(=O)[C@H](CCC(=O)O)NC(=O)[C@@H](NC(=O)[C@@H]1CCCN1C(=O)[C@@H](N)CCCCN)C(C)C)C(C)C)C(=O)N1CCC[C@H]1C(=O)N[C@@H](CCC(=O)O)C(=O)N[C@@H](CC(=O)O)C(=O)N[C@@H](Cc1ccc(OS(=O)(=O)O)cc1)C(=O)N[C@@H](CC(C)C)C(=O)N[C@@H](CCC(N)=O)C(=O)O | F2 | enzyme activity, inhibitor, absorbance | – | pH 8 | Ki | 0.00505 nM
CCCCCn1cc(C(=O)c2ccc3c(c2)CC(C)(C)C3)c2ccccc21 | CNR1 (Homo sapiens, UniProt P21554, H178A) | G protein activation, agonist, BRET | – | – | EC50 | 9550 nM
C#CCN(Cc1ccc2nc(C)[nH]c(=O)c2c1)c1ccc(C(=O)N[C@H](CCC(=O)OC)C(=O)OC)cc1 | 4'-phosphopantetheinyl transferase PptT | enzyme activity, inhibitor, fluorescence polarization | – | enzyme 100 nM | IC50 | 7830 nM

A few entries again:
SMILES | target or system | test | system | setting | measurement | result
C#CCN(Cc1ccc2nc(C)[nH]c(=O)c2c1)c1ccc(C(=O)NC(CCC(=O)O)C(=O)O)c(N)c1 (stereo not drawn) | 4'-phosphopantetheinyl transferase PptT | enzyme activity, inhibitor, FP | – | – | IC50 | 47 nM
CCN(CC)C(=O)c1ccc(C(c2cccc(O)c2)N2CC(C)N(Cc3ccccc3)CC2C)cc1 (stereo not drawn) | OPRD1 (Homo sapiens, UniProt P41143, M132A) | – | – | – | Ki | 1.47 ± 0.08 nM
O=C1NC2(CC2)COc2ncc(F)cc2[C@H]2COCCN2c2ccn3ncc1c3n2 | – | – | Sprague-Dawley rat, male, brain | oral, 5 mg/kg/day, 4 weeks dosing, end of recovery | organ-to-body weight ratio | 0.428 ± 0.028%
